Experimental data of several laboratories.
Protocols differ between the studies behind these lines. ± marks the error that the study gave.
Organism: Plasmodium falciparum

SMILES	assay	test system	setting	scale	quantity	result
O=S(=O)(c1cccc(-c2ccc3ncnc(Nc4ccc(OCc5cccc(F)c5)c(Cl)c4)c3c2)c1)N1CCCCC1	parasite growth, SYBR Green fluorescence	W2, drug-resistant			EC50	510 nM
Cc1cc(Nc2ccc(Cl)cc2)n2nc(C(F)(F)F)nc2n1	parasite growth, SYBR Green	3D7			EC50	39.4 nM
O[C@]12C=C(c3nccc4c3[nH]c3ccccc34)[C@@H]3CCN(CCCC/C=C\CC1)C[C@@]31C[C@@H]3/C=C\CCCCN3[C@H]12		D6, chloroquine-sensitive		reference: Vero IC50 over D6 IC50	selectivity index	47
CC(C)(C)OCc1ccc(-c2ccc3ncnc(Nc4ccc(OCc5cccc(F)c5)c(Cl)c4)c3c2)cc1	parasite growth, SYBR Green	D6	blood stage		EC50	600 nM
COC(=O)C1=CO[C@@H](C)[C@@H]2Cn3ccc4c5ccccc5nc-4c3C[C@H]12		C2B, atovaquone-resistant	48 h	reference: C2B over 3D7	resistance index	0.04
OC(c1cc(C(F)(F)F)nc2c(C(F)(F)F)cccc12)C1CCCCN1 (stereo not drawn)	parasite growth	Dd2-ATV			EC50	5 ± 0.9 nM
C[C@H](Oc1ccc(C(=O)c2ccc(F)cc2)cc1)C(=O)N1CCc2ccc(C(F)(F)F)cc21	parasite growth	Dd2			EC50	1.8 ± 0.43 nM
CCN(CC)CCCC(C)Nc1ccnc2cc(Cl)ccc12 (stereo not drawn)	parasite growth	Dd2-ATV			EC50	431 ± 57.5 nM
CN(C)S(=O)(=O)c1ccccc1-c1ccc2ncnc(Nc3ccc(OCc4cccc(F)c4)c(Cl)c3)c2c1	parasite growth, SYBR Green fluorescence	W2, drug-resistant			EC50	1800 nM
C[C@H]1Cc2c([nH]c3cc(Cl)c(F)cc23)[C@@]2(N1)C(=O)Nc1ccc(Cl)cc12	parasite growth	W2Mef			EC50	2.1 ± 0.3 nM
Cc1cc(Cl)ccc1OC(C)C(=O)N1CCc2ccccc21 (stereo not drawn)	parasite growth, SYBR Green	3D7 wild type	72 h		EC50	312 ± 78 nM
CC(C)(C)OC(=O)N1CCN(c2ccc(-c3ccc4ncnc(Nc5ccc(OCc6cccc(F)c6)c(Cl)c5)c4c3)cc2)CC1	parasite growth, SYBR Green fluorescence	C235 (TM91C235), drug-resistant			EC50	1100 nM
CC(NC(=O)c1cccc(C(c2ccccc2)N2C(=N)NC(C)(C(C)C)CC2=O)c1)c1ccccc1 (stereo not drawn)	parasite growth	Dd2-ATV			EC50	5.8 nM
COCCN(C)C(C)C(=O)NC(Cc1ccc(-c2ccccc2)cc1)B(O)O (stereo not drawn)		compound-selected recrudescent clone 1E9_F9	72 h		IC50	8.48 ± 0.56 µM
O=C1C(O)=C([C@H]2CC[C@H](c3ccc(Cl)cc3)CC2)C(=O)c2ccccc21	parasite growth	K1			EC50	1 ± 0.2 nM
O=S(=O)(c1ccc(-c2ccc3ncnc(Nc4ccc(OCc5cccc(F)c5)cc4)c3c2)cc1)N1CCOCC1	parasite growth, SYBR Green	D6	blood stage		EC50	440 nM
Cc1nc2c(C#N)cccc2n1-c1ccc(C(=O)NC2CC2)s1	parasite growth, SYBR Green	3D7 wild type	72 h		EC50	6.88 ± 1.5 nM
Fc1cccc(COc2ccc(Nc3ncnc4ccc(-c5cccc(CN6CCOCC6)c5)cc34)cc2Cl)c1	parasite growth, SYBR Green fluorescence	W2, drug-resistant			EC50	350 nM
COc1ccc2cc1Oc1cc3c(cc1OC)CCN(C)C3Cc1ccc(cc1)Oc1c(O)c(OC)cc3c1C(C2)N(C)CC3 (stereo not drawn)	parasite growth, stage-specific treatment		12 h, early to late trophozoite stage		IC50	1.39 ± 0.88 µM
Fc1cccc(COc2ccc(Nc3ncnc4ccc(-c5ccc(N6CCNCC6)cc5)cc34)cc2Cl)c1	parasite growth, SYBR Green	D6	blood stage		EC50	380 nM
COc1ccccc1-n1ccnc1SCC(=O)Nc1cc(C(F)(F)F)ccc1Cl	parasite growth, SYBR Green	3D7	72 h		EC50	681 nM
COc1cc2c3cc1Oc1cc(ccc1O)CC1c4c(cc(OC)c(O)c4Oc4ccc(cc4)CC3N(C)CC2)CCN1C (stereo not drawn)	parasite growth, stage-specific treatment		12 h, early to late trophozoite stage		IC50	6.59 ± 0.16 µM
COc1ccccc1-n1c(SCC(=O)Nc2ccccc2F)nc2cccnc21	parasite growth				EC50	90.8 ± 68 nM
O=S(=O)(c1ccc(-c2ccc3ncnc(Nc4ccc(OCc5ccccc5F)c(Cl)c4)c3c2)cc1)N1CCOCC1	parasite growth, SYBR Green fluorescence	W2, drug-resistant			EC50	570 nM
